Experimental data gathered from unrelated publications.
Each numbered part is a random draw from the data of one study; scales do not carry over between parts. “And” joins repeats or separate records; there may be more than shown. pEC50: −log10 of the molar value.

Sample 1 — organism: Plasmodium berghei; mode: inhibitor; cells: Huh-7; strain: GFP-expressing sporozoites, liver stage; concentration: 10 µM; time: 24 h; reference: untreated control
| SMILES | infection rate [%] |
| --- | --- |
| Cn1nnnc1SCC1=C(C(=O)O)N2C(=O)[C@@H](NC(=O)[C@H](OC=O)c3ccccc3)[C@H]2SC1 | 110 |
| CC1(C)S[C@@H]2[C@H](NC(=O)[C@H](N)c3ccccc3)C(=O)N2[C@H]1C(=O)O | 86.9 |
| CC1(C)S[C@@H]2[C@H](NC(=O)[C@H](NC(=O)N3CCNC3=O)c3ccccc3)C(=O)N2[C@H]1C(=O)O | 100 |
| CN(Cc1cc(Br)cc(Br)c1N)C1CCCCC1 | 114 |
| O=C(O)c1ccccc1 | 84.7 |
| CNCC[C@@H](Oc1ccccc1C)c1ccccc1 | 102 |
| CCCCC(=O)O[C@H]1CC[C@H]2[C@@H]3CCc4cc(O)ccc4[C@H]3CC[C@]12C | 119 |
| Cc1onc(-c2c(Cl)cccc2Cl)c1C(=O)N[C@@H]1C(=O)N2[C@@H]1SC(C)(C)[C@@H]2C(=O)O | 117 |
| CCN1CCN(c2cc3c(cc2F)c(=O)c(C(=O)O)cn3C2CC2)CC1 | 84.1 |
| O=C(OCc1ccccc1)c1ccccc1 | 70.6 |
| CN1CCC(OC(c2ccccc2)c2ccccc2)CC1 | 110 |
| C=C[C@@]1(C)CC(=O)[C@]2(O)[C@@]3(C)[C@@H](O)CCC(C)(C)[C@@H]3[C@H](O)[C@H](OC(C)=O)[C@@]2(C)O1 | 64.5 |
| C[N+](C)(C)CCO | 102 |
| C=CCSCC1Nc2cc(Cl)c(S(N)(=O)=O)cc2S(=O)(=O)N1 (stereo not shown) | 116 |

Sample 2 — mode: agonist
Target: Beta-1 adrenergic receptor (ADRB1, Homo sapiens, UniProt P08588)
Chain of UniProt P08588 (whole entry, looked up): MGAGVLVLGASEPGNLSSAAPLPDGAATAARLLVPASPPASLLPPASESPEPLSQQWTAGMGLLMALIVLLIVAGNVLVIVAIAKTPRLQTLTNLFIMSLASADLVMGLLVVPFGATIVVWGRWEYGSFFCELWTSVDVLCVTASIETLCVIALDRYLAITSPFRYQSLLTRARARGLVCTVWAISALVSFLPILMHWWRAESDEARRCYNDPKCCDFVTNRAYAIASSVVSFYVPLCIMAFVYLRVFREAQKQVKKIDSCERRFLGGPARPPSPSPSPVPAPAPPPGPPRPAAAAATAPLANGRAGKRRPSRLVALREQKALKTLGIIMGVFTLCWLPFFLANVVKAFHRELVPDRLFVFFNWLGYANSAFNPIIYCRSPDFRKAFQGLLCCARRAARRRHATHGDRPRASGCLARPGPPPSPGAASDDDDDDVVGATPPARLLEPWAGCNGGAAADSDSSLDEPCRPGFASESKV
| Compound | pEC50 |
| --- | --- |
| OC(c1ccc2c(c1)CCO2)c1nc(Nc2cccc(C(F)(F)F)c2)n[nH]1 (stereo not shown) | ≤ 4.00 |
| N#Cc1cc2c(OCC(O)CN3CCN(C(c4ccccc4)c4ccccc4)CC3)cccc2[nH]1 (stereo not shown) | 5.13 |
| Cc1nc(C2CC(O)C2)cc(N2CC(N3CCOCC3)C2)n1 (stereo not shown) | ≤ 4.00 |
| O=C1COc2ccc(-c3ccoc3)nc2CN1 | ≤ 4.00 |
| Cc1nn(C)c2nc(NCCCC3CCOC3)sc12 (stereo not shown) | ≤ 4.00 |
| O=C(c1nc(-c2ccccc2)cc2[nH]ccc12)N1CCOCC1 | ≤ 4.00 |
| COc1ccc2[nH]cc(C3=CCN(c4ccc(C#N)cc4F)CC3)c2c1 | ≤ 4.00 |
| CCOc1cccc(-c2cc(-c3nnc(S)n3CC)c3ccccc3n2)c1 | ≤ 4.00 |
| Cc1nc(N)sc1-c1ccnc(Nc2ccc(N3CCOCC3)cc2)n1 | ≤ 4.00 |
| N#C/C(=C\c1ccc(O)c(O)c1)c1nc2ccccc2[nH]1 | ≤ 4.00 |
| Cn1cc(-c2cnc(NC(=O)Cc3ccc(F)cc3)c3c2CCO3)cn1 | ≤ 4.00 |
| Cc1noc2c(N3CCOCC3)cc(-c3cccs3)nc12 | ≤ 4.00 |
| Cc1cc(C)n(-c2ccc(=O)n(CC3CN(c4nc5c(cc4C#N)CCC5)C3)n2)n1 | ≤ 4.00 |

Sample 3 — observed: ligand displacement; technique: radioligand; concentration: 10 µM
Target: 5-hydroxytryptamine receptor 1A (HTR1A, Homo sapiens, UniProt P08908)
Chain of UniProt P08908 (whole entry, looked up): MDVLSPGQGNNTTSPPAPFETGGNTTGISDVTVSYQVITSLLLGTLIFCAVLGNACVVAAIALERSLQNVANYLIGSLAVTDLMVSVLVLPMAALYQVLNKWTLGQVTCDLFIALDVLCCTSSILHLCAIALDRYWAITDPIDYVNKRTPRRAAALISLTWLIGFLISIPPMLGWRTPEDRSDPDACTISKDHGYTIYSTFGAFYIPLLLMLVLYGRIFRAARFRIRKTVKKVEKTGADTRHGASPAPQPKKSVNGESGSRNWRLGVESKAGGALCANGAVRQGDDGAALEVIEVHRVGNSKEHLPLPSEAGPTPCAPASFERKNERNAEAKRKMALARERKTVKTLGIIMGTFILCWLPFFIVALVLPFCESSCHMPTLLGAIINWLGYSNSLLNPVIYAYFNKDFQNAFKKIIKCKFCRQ
| SMILES | inhibition |
| --- | --- |
| Cc1cnc(-c2cc(Cl)ccc2F)cc1-n1c(=O)n(CC(N)=O)c2cnccc21 | 22.9% |
| Cc1nc(Cc2cccc(C(F)(F)F)c2)sc1-c1ccc(C(N)=O)nc1 | -2.04% |
| CCC(=N\O)/C(C)=C/c1ccc(F)cc1 | 6.81% |
| O=C(NS(=O)(=O)c1ccc(NCC2CCOCC2)c([N+](=O)[O-])c1)c1ccc(N2CCN(Cc3ccc(C(F)(F)F)cc3-c3ccc(Cl)cc3)CC2)cc1Oc1cnc2[nH]ccc2c1 | -13.4% |
| O=C(O)[C@@H]1[C@@H](Cn2nnc3ccccc3c2=O)CC[C@H]1C(=O)c1ccc(OCCC2CCOCC2)cc1 | 7.62% |
| CCCCN(CCCC)C(=O)CN1C[C@@H](c2cc(OC)c3c(c2)OCO3)[C@H](C(=O)O)[C@H]1CC(C)(C)CCC | 76.3% |
| CC1=C(C#N)[C@@H](c2ccc3[nH]nc(C)c3c2)C(C#N)=C(c2ccc(Cl)cc2)N1 | 2.67% |
| CCc1ccccc1C(=O)Nc1n[nH]c2c(C)c(F)c(C3C(C#N)=C(C)N(C)C(C)=C3C#N)cc12 | 5.2% |
| C[C@@H]1CN(c2cc(-c3nn(C)c4ccc(OC5(C)CC5)cc34)ncn2)C[C@H](C)O1 | 18.1% |
| CC(=O)Nc1c(C(C)=O)c(=O)n(C)c2nc(-c3ccc(Cl)cc3Cl)c(-c3ccc(Cl)cc3)cc12 | 12.2% |
| CN1CCN(C(=O)C(C)(C)c2ccc(C(=O)Nc3cn4cc(-c5ccncc5)ccc4n3)cc2)CC1 | -11.7% |
| O=C(NCc1ncc(C(F)(F)F)cc1Cl)c1ccc2c(c1)C1(CCS(=O)(=O)CC1)[C@@H](C1CC1)N2S(=O)(=O)c1ccc(F)cc1 | -13.2% |
| CCS(=O)(=O)c1cc2cc(C[C@@](O)(CC(C)(C)c3ccc(F)cc3C(N)=O)C(F)(F)F)[nH]c2cn1 | -7.37% |
| C[C@H](NC(=O)c1cnc2n1[C@](C)(Cc1ccc(C#N)cc1)C(=O)N2c1cc(Cl)c(F)c(Cl)c1)C(=O)NC1(c2ccccn2)CC1 | -9.74% |
| C[C@H](NC(=O)Nc1cc2[nH]ncc2c(CO)n1)c1ccccn1 | 20% |
| Cc1c[nH]c2nccc(Oc3c(F)cc(Nc4cc(Cl)nc(N)n4)cc3F)c12 | 11.7% |

Sample 4 — cell line: mouse MPNST tumor cells; technique: high-content nuclear imaging; measured: cell number; concentration: 10 µM; time: 12 h; notes: mean of 2 replicates; reference: plate mean; direction: higher = more cells
| SMILES | nuclei count |
| --- | --- |
| Nc1nc2ccc(OC(F)(F)F)cc2s1 | -0.0245 z-score and -2.55 z-score |
| CCN(CC)S(=O)(=O)c1ccc(Cl)c(C(=O)Nc2ccc3nc(C)sc3c2)c1 | 0.715 z-score |
| COc1ccc(CNC(=O)c2sc3nc(C)cc(C)c3c2N)cc1 | 2.94 z-score |
| CC(C)OC(=O)C(C)(C)Oc1ccc(C(=O)c2ccc(Cl)cc2)cc1 | 1.41 z-score and -0.227 z-score |
| CN(C)c1nc(N(C)C)nc(N(C)C)n1 | 1.07 z-score and 0.303 z-score |
| C=CCc1ccccc1OCC(O)CNC(C)C (stereo not shown) | 2.67 z-score |
| CCOC(=O)OC(C)OC1=C(C(=O)Nc2ccccn2)N(C)S(=O)(=O)c2ccccc21 (stereo not shown) | 0.362 z-score |
| CN(C)CCCC1(c2ccc(F)cc2)OCc2cc(C#N)ccc21 (stereo not shown) | 3.4 z-score and 3.58 z-score |
| CCCN1CCN(c2ccc(C(=O)NC3(C(=O)NCC#N)CCCCC3)cc2)CC1 | -0.833 z-score |
